{"data": "Measured values collected from several papers", "ABCG2": "Broad substrate specificity ATP-binding cassette transporter ABCG2 (ABCG2, Homo sapiens, UniProt Q9UNQ0)", "CHRM1": "Muscarinic acetylcholine receptor M1 (CHRM1, Homo sapiens, UniProt P11229)", "note": "Compare with care: the assays were run in different laboratories. Values joined by “and” are separate records of one study, mostly repeats; a detail may differ. ± marks the error that the study gave.", "UniProt Q9UNQ0, sequence (whole entry, looked up)": "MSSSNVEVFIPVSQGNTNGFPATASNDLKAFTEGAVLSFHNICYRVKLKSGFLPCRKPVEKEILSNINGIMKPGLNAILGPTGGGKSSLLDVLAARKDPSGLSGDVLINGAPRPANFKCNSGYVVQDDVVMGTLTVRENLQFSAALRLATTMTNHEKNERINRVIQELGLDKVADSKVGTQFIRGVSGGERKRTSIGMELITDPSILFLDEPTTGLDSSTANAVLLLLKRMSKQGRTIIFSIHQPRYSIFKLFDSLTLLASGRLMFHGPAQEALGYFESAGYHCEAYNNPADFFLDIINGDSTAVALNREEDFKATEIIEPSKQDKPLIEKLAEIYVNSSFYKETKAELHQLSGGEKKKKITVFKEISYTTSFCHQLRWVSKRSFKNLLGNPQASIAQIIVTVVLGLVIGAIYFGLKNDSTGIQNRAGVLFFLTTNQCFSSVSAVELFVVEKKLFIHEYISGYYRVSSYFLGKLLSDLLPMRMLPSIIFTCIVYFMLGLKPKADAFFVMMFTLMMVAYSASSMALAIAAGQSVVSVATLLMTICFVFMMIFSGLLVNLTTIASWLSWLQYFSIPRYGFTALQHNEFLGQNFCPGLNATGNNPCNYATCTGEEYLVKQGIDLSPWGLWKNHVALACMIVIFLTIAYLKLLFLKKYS", "UniProt P11229, sequence (whole entry, looked up)": "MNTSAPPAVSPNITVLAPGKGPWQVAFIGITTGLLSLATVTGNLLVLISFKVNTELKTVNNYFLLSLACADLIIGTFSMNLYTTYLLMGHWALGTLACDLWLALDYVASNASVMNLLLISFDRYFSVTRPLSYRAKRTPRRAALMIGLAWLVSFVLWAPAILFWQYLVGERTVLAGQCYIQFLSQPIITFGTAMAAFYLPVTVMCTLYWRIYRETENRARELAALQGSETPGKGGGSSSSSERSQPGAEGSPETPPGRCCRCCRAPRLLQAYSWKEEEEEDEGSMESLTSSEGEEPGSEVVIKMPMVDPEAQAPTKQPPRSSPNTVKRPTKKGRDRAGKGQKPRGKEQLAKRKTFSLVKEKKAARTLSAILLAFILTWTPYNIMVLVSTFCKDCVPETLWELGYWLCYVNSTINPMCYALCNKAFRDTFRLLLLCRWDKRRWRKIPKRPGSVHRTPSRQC", "UniProt P00760, sequence (whole entry, looked up)": "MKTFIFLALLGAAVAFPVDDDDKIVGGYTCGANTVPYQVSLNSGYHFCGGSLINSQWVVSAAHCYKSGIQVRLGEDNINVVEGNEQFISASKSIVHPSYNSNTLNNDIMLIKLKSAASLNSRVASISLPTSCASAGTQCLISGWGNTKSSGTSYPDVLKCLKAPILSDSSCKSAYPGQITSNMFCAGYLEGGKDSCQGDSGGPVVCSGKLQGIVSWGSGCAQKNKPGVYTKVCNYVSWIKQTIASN", "UniProt P11509, sequence (whole entry, looked up)": "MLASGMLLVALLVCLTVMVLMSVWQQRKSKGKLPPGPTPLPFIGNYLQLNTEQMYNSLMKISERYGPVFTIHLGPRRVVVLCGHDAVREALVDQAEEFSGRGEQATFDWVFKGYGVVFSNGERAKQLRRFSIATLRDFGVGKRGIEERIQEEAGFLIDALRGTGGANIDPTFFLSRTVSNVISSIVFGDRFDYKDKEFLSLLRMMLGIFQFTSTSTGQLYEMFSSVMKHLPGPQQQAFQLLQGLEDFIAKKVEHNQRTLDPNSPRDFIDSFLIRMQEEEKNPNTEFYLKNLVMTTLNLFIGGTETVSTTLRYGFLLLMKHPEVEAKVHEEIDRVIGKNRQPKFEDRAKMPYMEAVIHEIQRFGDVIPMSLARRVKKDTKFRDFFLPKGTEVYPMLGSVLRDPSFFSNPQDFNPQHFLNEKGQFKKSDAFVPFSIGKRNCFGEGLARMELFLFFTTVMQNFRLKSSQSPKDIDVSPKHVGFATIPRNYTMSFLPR", "UniProt Q9NPD5, sequence (whole entry, looked up)": "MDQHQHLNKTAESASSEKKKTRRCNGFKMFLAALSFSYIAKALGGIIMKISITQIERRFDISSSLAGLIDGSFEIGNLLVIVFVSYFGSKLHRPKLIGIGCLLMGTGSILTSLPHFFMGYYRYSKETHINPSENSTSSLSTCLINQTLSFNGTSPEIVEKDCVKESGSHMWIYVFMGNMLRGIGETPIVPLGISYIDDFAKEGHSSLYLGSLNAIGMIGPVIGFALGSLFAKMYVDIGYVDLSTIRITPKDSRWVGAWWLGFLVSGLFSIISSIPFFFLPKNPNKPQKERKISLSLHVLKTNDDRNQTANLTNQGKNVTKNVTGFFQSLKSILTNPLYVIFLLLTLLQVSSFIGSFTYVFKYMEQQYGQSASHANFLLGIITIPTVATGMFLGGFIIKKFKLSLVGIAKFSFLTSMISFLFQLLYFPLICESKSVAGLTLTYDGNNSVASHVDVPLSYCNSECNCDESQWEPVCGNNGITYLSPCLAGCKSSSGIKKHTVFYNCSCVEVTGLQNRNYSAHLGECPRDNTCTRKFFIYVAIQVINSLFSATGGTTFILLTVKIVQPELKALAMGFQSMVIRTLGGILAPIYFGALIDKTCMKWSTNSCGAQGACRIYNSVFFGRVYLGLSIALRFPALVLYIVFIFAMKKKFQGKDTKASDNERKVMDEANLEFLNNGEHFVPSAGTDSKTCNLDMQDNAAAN"}
{"Substance": "CCCCCCCCCCCCCCCCNC", "target or system": "Oncorhynchus mykiss", "test": "liver S9 substrate depletion", "system": "rainbow trout liver S9", "conditions": "tested individually", "endpoint": "intrinsic clearance in vivo", "value": "33 mL/h/g liver"}
{"Substance": "O=C(c1ccoc1)N1CCN(c2cc(-c3cccnc3)nc3cc(-c4cccc(Cl)c4)nn23)CC1", "target or system": "ABCG2", "test": "JC-1 dye efflux, inhibitor, flow cytometry", "system": "ABCG2-overexpressing cells", "conditions": "together with: JC-1 1 µM", "endpoint": "IC50", "value": "270 ± 120 nM"}
{"Substance": "CCCCCCCCCCN(C)C", "target or system": "Oncorhynchus mykiss", "test": "liver S9 substrate depletion", "system": "rainbow trout liver S9", "conditions": "tested individually", "endpoint": "intrinsic clearance in vitro", "value": "2.18 mL/h/mg S9 protein"}
{"Substance": "O=C(Cc1ccccc1)N1CCN(c2cc(-c3ccccc3)nc3cc(-c4cccc(Cl)c4)nn23)CC1", "target or system": "ABCG2", "test": "JC-1 dye efflux, inhibitor, flow cytometry", "system": "ABCG2-overexpressing cells", "conditions": "together with: JC-1 1 µM", "endpoint": "IC50", "value": "5760 ± 3400 nM"}
{"Substance": "C=CC(=O)N1CCC([C@@H]2CCNc3c(C(N)=O)c(-c4ccc(Oc5ccccc5)cc4)nn32)CC1", "target or system": "SLCO1B3 (Homo sapiens, UniProt Q9NPD5)", "test": "transport, refers to: estradiol-17β-glucuronide uptake", "system": "HEK293 transfected", "conditions": "0.05 µM", "scale": "baseline: vehicle", "endpoint": "remaining activity", "value": "91.6 ± 12%"}
{"Substance": "O=C(c1ccoc1)N1CCN(c2cc(-c3ccccc3F)nc3cc(-c4ccccc4)nn23)CC1", "target or system": "ABCG2", "test": "JC-1 dye efflux, inhibitor, flow cytometry", "system": "ABCG2-overexpressing cells", "conditions": "together with: JC-1 1 µM", "endpoint": "IC50", "value": "560 nM"}
{"Substance": "C=C(C[C@H](N)C(=O)O)C(=O)Nc1ccccc1", "target or system": "MDA-MB-231", "test": "necrosis", "conditions": "24 h", "endpoint": "EC50", "value": "> 316000 nM"}
{"Substance": "CC[C@H](C)[C@H](NC(=O)[C@H](CCC(=O)O)NC(=O)[C@H](CO)NC(=O)[C@@H](NC(=O)[C@@H](N)CO)C(C)C)C(=O)N[C@@H](CCC(N)=O)C(=O)N[C@@H](CC(C)C)C(=O)N[C@@H](CCSC)C(=O)N[C@@H](Cc1cnc[nH]1)C(=O)N[C@@H](CC(N)=O)C(=O)N[C@@H](CC(C)C)C(=O)NCC(=O)N[C@@H](CCCCN)C(=O)N[C@@H](Cc1cnc[nH]1)C(=O)N[C@@H](CC(C)C)C(=O)N[C@@H](CC(N)=O)C(=O)N[C@@H](CO)C(=O)N[C@@H](CCSC)C(=O)N[C@@H](CCC(=O)O)C(=O)N[C@@H](CCCN=C(N)N)C(=O)N[C@H](C(=O)N[C@@H](CCC(=O)O)C(=O)N[C@@H](Cc1c[nH]c2ccccc12)C(=O)N[C@@H](CC(C)C)C(=O)N[C@@H](CCCN=C(N)N)C(=O)N[C@@H](CCCCN)C(=O)N[C@@H](CCCCN)C(=O)N[C@@H](CC(C)C)C(=O)N[C@@H](CCC(N)=O)C(=O)N[C@@H](CC(=O)O)C(=O)N[C@H](C(=O)N[C@@H](Cc1cnc[nH]1)C(=O)N[C@@H](CC(N)=O)C(=O)N[C@@H](Cc1ccccc1)C(=O)O)C(C)C)C(C)C", "target or system": "Serine protease 1 (PRSS1, Bos taurus, UniProt P00760)", "test": "substrate, HPLC-UV", "system": "Tris buffer", "conditions": "5 min, pH 6.5, 37 °C, together with: bovine trypsin 0.5 mg, no SBTI", "endpoint": "remaining intact compound", "value": "0%"}
{"Substance": "O=C(c1ccccc1Cl)N1CCN(c2cc(-c3ccccc3)nc3cc(-c4cccc(Cl)c4)nn23)CC1", "target or system": "ABCG2", "test": "JC-1 dye efflux, inhibitor, flow cytometry", "system": "ABCG2-overexpressing cells", "conditions": "together with: JC-1 1 µM", "endpoint": "IC50", "value": "1310 ± 230 nM"}
{"Substance": "CCCCCCCCCN", "target or system": "Oncorhynchus mykiss", "test": "liver S9 substrate depletion", "system": "pooled rainbow trout liver S9", "conditions": "pH 7.8, tested individually", "endpoint": "intrinsic clearance in vivo", "value": "12 mL/h/g liver"}
{"Substance": "O=C(c1ccoc1)N1CCN(c2cc(-c3ccco3)nc3cc(-c4ccccc4)nn23)CC1", "target or system": "ABCG2", "test": "JC-1 dye efflux, inhibitor, flow cytometry", "system": "ABCG2-overexpressing cells", "conditions": "together with: JC-1 1 µM", "endpoint": "IC50", "value": "130 ± 30 nM"}
{"Substance": "CCCCCCCCCCCCNC", "target or system": "Oncorhynchus mykiss", "test": "liver S9 substrate depletion", "system": "rainbow trout liver S9", "conditions": "tested individually", "endpoint": "intrinsic clearance in vitro", "value": "0.555 mL/h/mg S9 protein"}
{"Substance": "COc1ccccc1-c1cc2nc(-c3ccccc3)cc(N3CCN(C(=O)c4ccccc4)CC3)n2n1", "target or system": "ABCG2", "test": "JC-1 dye efflux, inhibitor, flow cytometry", "system": "ABCG2-overexpressing cells", "conditions": "together with: JC-1 1 µM", "endpoint": "IC50", "value": "760 ± 60 nM"}
{"Substance": "Cn1ncc2ccc(COc3ccccc3-c3cc(=O)n(C4CCCCC4O)cn3)cc21 (stereo not drawn)", "target or system": "CHRM1", "test": "allosteric agonist, IP1 accumulation", "system": "CHO-M1 cells", "conditions": "10 µM, unit not given", "scale": "baseline: maximum ACh response", "endpoint": "change in baseline activity", "value": "73.5 ± 1.8"}
{"Substance": "CCCCCCCCCCCCCCN(C)C", "target or system": "Oncorhynchus mykiss", "test": "liver S9 substrate depletion", "system": "rainbow trout liver S9", "conditions": "tested individually", "endpoint": "intrinsic clearance in vivo", "value": "188 mL/h/g liver"}
{"Substance": "Oc1ccc(/C=C/c2cc(O)cc(O)c2)cc1", "target or system": "Drosophila melanogaster", "test": "wing spot test", "system": "high bioactivation cross, wings", "conditions": "oral, concentration not given", "endpoint": "twin spots per fly", "value": "0.01 Spots per Fly and 0.02 Spots per Fly"}
{"Substance": "liraglutide", "target or system": "α1-acid glycoprotein human", "test": "equilibrium dialysis", "conditions": "10 nM, 4 to 5 h, pH 7.4, 37 °C, ratio 20:1 (95% bound), together with: AAGP 1 mg/mL", "endpoint": "protein binding", "value": "96.9%"}
{"Substance": "C=C(C[C@H](N)C(=O)O)C(=O)NC1CC1", "target or system": "MDA-MB-231", "test": "necrosis", "conditions": "24 h", "endpoint": "EC50", "value": "> 316000 nM"}
{"Substance": "O=C(c1ccncc1)N1CCN(c2cc(-c3ccccc3)nc3cc(-c4cccc(Cl)c4)nn23)CC1", "target or system": "ABCG2", "test": "JC-1 dye efflux, inhibitor, flow cytometry", "system": "ABCG2-overexpressing cells", "conditions": "together with: JC-1 1 µM", "endpoint": "IC50", "value": "1030 ± 230 nM"}
{"Substance": "CCCCCCCCCCCCCN", "target or system": "Oncorhynchus mykiss", "test": "liver S9 substrate depletion", "system": "pooled rainbow trout liver S9", "conditions": "pH 7.8, tested individually", "endpoint": "intrinsic clearance in vitro", "value": "0.111 mL/h/mg S9 protein"}
{"Substance": "O=C1CC(c2ccccc2)Oc2ccccc21 (stereo not drawn)", "target or system": "Cytochrome P450 2A6 (CYP2A6, Homo sapiens, UniProt P11509)", "test": "substrate, refers to: hydroxy metabolite M1 formation", "conditions": "reconstituted system", "endpoint": "Km", "value": "49 µM"}
{"Substance": "CCCCCCCCN(C)C", "target or system": "Oncorhynchus mykiss", "test": "liver S9 substrate depletion", "system": "pooled rainbow trout liver S9", "conditions": "pH 7.8, tested individually", "endpoint": "intrinsic clearance in vitro", "value": "1.32 mL/h/mg S9 protein"}
{"Substance": "CC/C(=C(\\c1ccccc1)c1ccc(OCCN(C)C)cc1)c1ccccc1", "target or system": "MDA-MB-231", "test": "necrosis", "conditions": "24 h", "endpoint": "EC50", "value": "26300 nM"}
{"Substance": "N=C1Sc2ccccc2C2=NCCCN12", "target or system": "Trypanosoma brucei", "test": "viability, flow cytometry", "system": "bloodstream form", "conditions": "24 h", "endpoint": "EC50", "value": "> 25000 nM"}
{"Substance": "COc1cccc(-c2cc(N3CCN(C(=O)c4ccoc4)CC3)n3nc(-c4ccccc4)cc3n2)c1", "target or system": "ABCG2", "test": "JC-1 dye efflux, inhibitor, flow cytometry", "system": "ABCG2-overexpressing cells", "conditions": "together with: JC-1 1 µM", "endpoint": "IC50", "value": "200 nM"}
{"Substance": "CCCCCCCCCCCC[N+](C)(C)Cc1ccccc1", "target or system": "Oncorhynchus mykiss", "test": "liver S9 substrate depletion", "system": "pooled rainbow trout liver S9", "conditions": "pH 7.8, tested individually", "endpoint": "intrinsic clearance in vivo", "value": "22 mL/h/g liver"}
{"Substance": "CC(C)(C)OC(=O)Nc1ccc(COc2ccccc2-c2cc(=O)n(C3CCCCC3O)cn2)cc1 (stereo not drawn)", "target or system": "CHRM1", "test": "allosteric agonist, IP1 accumulation", "system": "CHO-M1 cells", "conditions": "1 µM, unit not given", "scale": "baseline: maximum ACh response", "endpoint": "change in baseline activity", "value": "43.1 ± 2.8"}
{"note": "Some of these lines once more:"}
{"Substance": "CCCCCCCCCCCCCN", "target or system": "Oncorhynchus mykiss", "test": "liver S9 substrate depletion", "system": "pooled rainbow trout liver S9", "conditions": "pH 7.8, tested individually", "endpoint": "intrinsic clearance in vitro", "value": "0.111 mL/h/mg S9 protein"}
